Measured values of several laboratories.
Each numbered part is a random draw from the data of one study; scales do not carry over between parts. Substitutions count along the parent as printed.
Sequence of UniProt Q9C5W9 (whole entry, looked up): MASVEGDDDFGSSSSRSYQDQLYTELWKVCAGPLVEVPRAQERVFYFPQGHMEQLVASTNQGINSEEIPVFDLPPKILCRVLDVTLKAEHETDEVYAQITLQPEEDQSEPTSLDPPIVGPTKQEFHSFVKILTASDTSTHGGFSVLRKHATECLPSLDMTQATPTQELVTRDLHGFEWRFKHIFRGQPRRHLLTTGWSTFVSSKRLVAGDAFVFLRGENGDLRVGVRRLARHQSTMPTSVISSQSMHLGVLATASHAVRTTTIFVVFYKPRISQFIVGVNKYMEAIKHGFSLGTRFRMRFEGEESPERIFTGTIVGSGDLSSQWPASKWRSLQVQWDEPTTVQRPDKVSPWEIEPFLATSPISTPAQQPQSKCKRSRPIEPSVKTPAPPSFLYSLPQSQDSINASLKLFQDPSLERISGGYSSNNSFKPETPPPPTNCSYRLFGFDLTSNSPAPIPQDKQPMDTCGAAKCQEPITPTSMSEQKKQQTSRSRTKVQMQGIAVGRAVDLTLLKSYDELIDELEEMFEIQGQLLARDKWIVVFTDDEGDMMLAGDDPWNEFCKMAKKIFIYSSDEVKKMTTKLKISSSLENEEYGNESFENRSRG
Sequence of UniProt Q9C7I9 (whole entry, looked up): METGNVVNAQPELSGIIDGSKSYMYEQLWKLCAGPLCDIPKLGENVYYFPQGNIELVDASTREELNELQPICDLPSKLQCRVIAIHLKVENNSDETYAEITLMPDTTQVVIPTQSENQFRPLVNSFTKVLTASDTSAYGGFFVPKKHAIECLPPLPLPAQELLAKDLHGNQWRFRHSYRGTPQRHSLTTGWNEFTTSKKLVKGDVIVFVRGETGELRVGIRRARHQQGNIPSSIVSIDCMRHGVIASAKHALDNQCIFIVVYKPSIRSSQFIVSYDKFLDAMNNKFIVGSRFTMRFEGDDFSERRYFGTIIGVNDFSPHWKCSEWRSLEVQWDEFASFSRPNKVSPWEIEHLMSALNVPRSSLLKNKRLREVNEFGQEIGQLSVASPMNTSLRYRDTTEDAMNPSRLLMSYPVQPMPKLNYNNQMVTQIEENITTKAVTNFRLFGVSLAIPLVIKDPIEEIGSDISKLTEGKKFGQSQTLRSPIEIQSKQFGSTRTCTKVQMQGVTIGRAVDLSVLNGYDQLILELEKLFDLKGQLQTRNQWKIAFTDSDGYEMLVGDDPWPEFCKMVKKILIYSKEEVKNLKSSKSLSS
Sequence of UniProt Q38831 (whole entry, looked up): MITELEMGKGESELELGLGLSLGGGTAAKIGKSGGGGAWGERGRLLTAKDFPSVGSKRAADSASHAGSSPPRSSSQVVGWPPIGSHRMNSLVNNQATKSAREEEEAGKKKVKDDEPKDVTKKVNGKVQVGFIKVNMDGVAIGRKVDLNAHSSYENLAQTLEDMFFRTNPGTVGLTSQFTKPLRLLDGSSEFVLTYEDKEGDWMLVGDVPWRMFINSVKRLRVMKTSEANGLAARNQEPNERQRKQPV
Sequence of UniProt Q9ZPY6 (whole entry, looked up): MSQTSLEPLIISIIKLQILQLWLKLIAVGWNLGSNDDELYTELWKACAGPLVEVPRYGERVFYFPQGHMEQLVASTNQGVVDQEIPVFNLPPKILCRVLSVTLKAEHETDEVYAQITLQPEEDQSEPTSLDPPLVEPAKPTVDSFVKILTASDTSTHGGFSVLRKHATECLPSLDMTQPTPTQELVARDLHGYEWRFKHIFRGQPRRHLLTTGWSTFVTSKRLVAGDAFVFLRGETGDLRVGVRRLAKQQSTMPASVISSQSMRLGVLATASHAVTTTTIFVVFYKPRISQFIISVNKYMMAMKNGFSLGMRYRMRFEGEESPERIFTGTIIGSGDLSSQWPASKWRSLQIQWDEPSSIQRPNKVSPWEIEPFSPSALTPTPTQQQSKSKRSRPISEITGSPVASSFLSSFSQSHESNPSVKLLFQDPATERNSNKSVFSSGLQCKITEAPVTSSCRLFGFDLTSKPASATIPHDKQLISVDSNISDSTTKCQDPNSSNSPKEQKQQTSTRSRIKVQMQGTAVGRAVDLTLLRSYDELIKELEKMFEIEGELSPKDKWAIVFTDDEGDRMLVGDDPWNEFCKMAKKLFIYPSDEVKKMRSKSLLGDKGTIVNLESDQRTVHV
Sequence of UniProt Q38830 (whole entry, looked up): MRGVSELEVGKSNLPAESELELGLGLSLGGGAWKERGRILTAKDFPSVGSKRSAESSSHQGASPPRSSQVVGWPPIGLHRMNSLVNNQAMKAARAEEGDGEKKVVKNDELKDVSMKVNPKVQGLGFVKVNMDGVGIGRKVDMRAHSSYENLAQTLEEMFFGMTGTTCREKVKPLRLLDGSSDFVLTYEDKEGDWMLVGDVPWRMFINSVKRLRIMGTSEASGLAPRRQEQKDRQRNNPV
Sequence of UniProt Q9C8N7 (whole entry, looked up): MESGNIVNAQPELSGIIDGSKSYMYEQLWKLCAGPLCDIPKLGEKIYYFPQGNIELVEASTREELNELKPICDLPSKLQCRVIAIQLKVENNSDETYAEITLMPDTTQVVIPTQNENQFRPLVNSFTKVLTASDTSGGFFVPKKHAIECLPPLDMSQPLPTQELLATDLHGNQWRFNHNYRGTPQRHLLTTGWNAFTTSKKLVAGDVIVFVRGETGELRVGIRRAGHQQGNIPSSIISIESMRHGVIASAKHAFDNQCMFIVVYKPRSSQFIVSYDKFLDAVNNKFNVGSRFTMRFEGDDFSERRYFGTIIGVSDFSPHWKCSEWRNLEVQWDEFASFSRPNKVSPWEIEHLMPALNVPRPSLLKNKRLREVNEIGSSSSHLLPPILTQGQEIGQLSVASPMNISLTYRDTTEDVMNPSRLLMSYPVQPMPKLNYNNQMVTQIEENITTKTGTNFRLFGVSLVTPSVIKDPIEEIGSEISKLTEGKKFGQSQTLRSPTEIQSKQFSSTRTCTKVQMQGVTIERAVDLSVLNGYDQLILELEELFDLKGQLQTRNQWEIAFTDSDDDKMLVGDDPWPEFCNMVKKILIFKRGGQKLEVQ

Block 1
Target: RNA binding protein fox-1 homolog 2, RRM domain, GST-SBP tag (RBFOX2, Homo sapiens, UniProt O43251-10, residues 100-194)
Method: RNA Bind-n-Seq
Form: RNA
Medium: in vitro
Tested at: 365 nM
Notes: natural RNA segment, single round, ends assumed
Baseline: no-protein control
Direction: higher = stronger binding
Constant ends, left off below: GGGAGUUCUACAGUCCGACGAUC … UGGAAUUCUCGGGUGCCAA
Construct (chain): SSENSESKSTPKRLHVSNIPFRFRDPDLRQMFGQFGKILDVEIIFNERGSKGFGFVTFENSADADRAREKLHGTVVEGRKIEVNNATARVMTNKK
Oligonucleotide | RBNS enrichment (R)
AGUUCACUUUGGAUCCUUAUUUUGUAUGACUUCUGCUGAAGGACAGAACAUUGCCUUCCUCGUGCAGAGCUGGGGCUGCCAGCCUGAGCGGAGGCUCGGCCGUGGGCCGG | 1.39
GUUGAUAAUACCGAAGAAGUGAUGCAAAAACAAAAAAUCACAUUACUGAUCAUUGAUAGUAUUACAAAUAAAUGUCUCUUCCUUUCUCUUCCUCCCUUCCUCCCCCUGCC | 0.568
CUCAUGAUCAUAUCAUGAGAAAACCGCCUUUUCAUAUUUAUUUUUCUAACUGAUCACAUACGCAGGAGUGGCCAUGGUCGAGAGGGCCUGACACACUUGGCCCUCGAUGU | 0.212
UUAGUCACGGAGUUGCCAUGGCAUGUAGUAGAAAACCACAGGAAGAAUGGUCAUAUUCACUUUGUGGGCUGCCCAUAAUCUUUCUUGGGCAUUCACAACUCUUGAGUUUG | 2.16
CGGUGAUCUGUGGCCUUCUGUGGGUAGCACCAAGCCAGUCAGUCCAGACACAUAGUGAGUUCCUGGAGGGUCUACUGCAGCCUGAGGAAAGGGAACCUCAGCUCGUUAGG | 1.16
CCCUGUUAAUCUCCUUUUUUCUUGGAUUGGAGAGGAGAGAAUCUGGACAUGGCUUUGGACUUGGAGGAUAUCUUGGAUUGGAUUGCACAAUGGCUUAAAUUCUUGAUUCU | 0.891
ACAGGAGCGCAGUAUUUAGUCCAUUGUUUUAUCCAGUGAGACCCAAGCUAGCCUUGAAUAAUUCUUCUCUCGUCUUCCUGAAACACUAUUAUGCUUGUUGUACCUUUAAA | 0.73
GCUUCCCCCUUCCCCUGAGACUGGUGGACUGAACUCCAGUCAAGUUGAGUUCAAGUGAAAGAUUCUUCCAGGGUUUUAUUUUUUCCCCUCCUAACAAAGUCUCAUAGUGU | 0.825
GAGGCCACUGGCUUCCAUCCUAAGAAUGAGGUGCAACAAGACCCCAUUCUCACAGAACCUCAAAGACUUGGUUCCAGGCUCUCCAGAGACCAUACCCAACUCAUGUGCAU | 0.229
CAGCACCCUGUGCCAGGCACUGACUCAAGCAAGAGGAACCUGGCCUGAUCCCUGACUUUGGGGAACCCAGAUCUUUCCUUUGAUUUUUGCUCCUAAUGAUCAAAACCCCA | 0.589
CCAUAACCCCAGACCAAAGAGGUUCUCUAAGCAGCUGUGACCAGGUUCCUCCCUCCCCACCUGCCCUCCUAGCUCCAGCACUGCCCCCGUGGCAGCCCACUUGGACCCCC | 0.668
GAGAGAAUUGGAAAUGCACGUGCUUAAAUGAUACAGCUUUAAUCUGUAUUAUGACUGCUGGUGGUAAGAGGAAUAUCUUUAAAUUUCUUAUGAAAACAAAUCCACAUUCA | 0.395

Block 2
Target: CCND3, cyclin fold, Cln2 fusion (human)
Method: yeast growth competition, sequencing
Medium: yeast
Notes: weak parent motif
Baseline: not given
Direction: higher = stronger binding
Starting sequence: ANKRD17 docking peptide (human); PSVRRQLFVTVVK; partner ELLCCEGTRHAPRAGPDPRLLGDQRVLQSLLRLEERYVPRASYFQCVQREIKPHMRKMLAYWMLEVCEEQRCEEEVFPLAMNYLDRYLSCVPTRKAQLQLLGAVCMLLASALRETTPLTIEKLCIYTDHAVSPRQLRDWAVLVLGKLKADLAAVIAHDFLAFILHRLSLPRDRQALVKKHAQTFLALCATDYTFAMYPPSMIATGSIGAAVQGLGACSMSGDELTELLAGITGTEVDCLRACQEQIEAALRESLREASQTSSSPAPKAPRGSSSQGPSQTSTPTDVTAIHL
Change | normalised enrichment score
PSVARQLFVTVVK [R4A] | 0.124
PSVRRQAFVTVVK [L7A] | 0.193
PAVRRQLFVTVVK [S2A] | 0.168
PSARRQLFVTVVK [V3A] | 0.191
ASVRRQLFVTVVK [P1A] | 0.123
PSVRKQLLVTVVK [R5K F8L] | 0.983
PSVRAQAFVTVVK [R5A L7A] | 0.0147
PSVRRQLAVTVVK [F8A] | 0.176
PSVRRQLFVTVVA [K13A] | 0.0861
PSVRRQLLVTVVK [F8L] | -0.186

Block 3
Molecule: B1 (IAA10)
Method: two-hybrid
Direction: higher = firmer interaction
B1: IAA10 (Arabidopsis thaliana, UniProt Q38828); chain MNGLQEVCSSSGSVMIGLPAEEDENAAHSSEDSSCPDESVSETELDLALGLSIGRRKVRSSLSSSSSSLTRESGTKRSADSSPAAASNATRQVAVGWPPLRTYRINSLVNQAKSLATEGGLSSGIQKETTKSVVVAAKNDDACFIKSSRTSMLVKVTMDGVIIGRKVDLNALDSYAALEKTLDLMFFQIPSPVTRSNTQGYKTIKETCTSKLLDGSSEYIITYQDKDGDWMLVGDVPWQMFLGSVTRLRIMKTSIGAGVGK
partner | how to read | positive tests
ARF20 484-590 (Arabidopsis thaliana, UniProt Q9C7I9) | baseline: out of 4 tests | 0
IAA12 (Arabidopsis thaliana, UniProt Q38830) | baseline: out of 4 tests | 1
ARF22 498-598 (Arabidopsis thaliana, UniProt Q9C8N7) | baseline: out of 4 tests | 2
ARF18 482-602 (Arabidopsis thaliana, UniProt Q9C5W9) | baseline: out of 4 tests | 2
ARF11 500-622 (Arabidopsis thaliana, UniProt Q9ZPY6) | baseline: out of 2 tests | 0
IAA13 (Arabidopsis thaliana, UniProt Q38831) | baseline: out of 3 tests | 0

Block 4
Target: BATF2, bZIP domain (human)
Method: DHFR protein complementation
Medium: yeast
Notes: single substitutions, most at no-binding floor
Baseline: wild-type JUN-FOS pair
Direction: higher = stronger binding
Starting sequence: JUN, bZIP domain (human); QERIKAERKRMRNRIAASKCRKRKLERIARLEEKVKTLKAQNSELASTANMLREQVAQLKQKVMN; partner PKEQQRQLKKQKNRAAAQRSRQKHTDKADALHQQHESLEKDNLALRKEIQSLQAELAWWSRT
Change | binding fitness [natural log]
S47W | -0.437
E33M | -0.504
N42W | -1.32
A46Q | -0.201
A40G | -0.555
A29P | -0.888
L38G | -1.34
A57R | -0.483
S43Y | -0.388
K34Y | -0.699
A29K | -0.436
Q41M | -0.362
I28A | -0.542
L52W | -1.18
S47C | -0.298
N42C | -1.11
Q41P | -1.53
R53C | -1.38
E32Y | -0.88

Block 5
Target: ABI1, truncated, D143A, DHFR fusion (Arabidopsis thaliana)
Method: DHFR PCA, deep sequencing
Medium: yeast
Notes: methotrexate growth selection, single substitutions
With: (+)-ABA 0.39 µM
Baseline: wild-type fitted maximum
Direction: higher = stronger binding
Starting sequence: PYL1, truncated, DHFR fusion (Arabidopsis thaliana); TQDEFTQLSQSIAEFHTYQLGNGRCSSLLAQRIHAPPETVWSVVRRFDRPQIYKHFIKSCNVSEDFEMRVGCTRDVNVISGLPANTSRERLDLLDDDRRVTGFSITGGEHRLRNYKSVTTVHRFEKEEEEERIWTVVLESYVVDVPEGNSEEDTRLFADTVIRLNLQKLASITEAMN; partner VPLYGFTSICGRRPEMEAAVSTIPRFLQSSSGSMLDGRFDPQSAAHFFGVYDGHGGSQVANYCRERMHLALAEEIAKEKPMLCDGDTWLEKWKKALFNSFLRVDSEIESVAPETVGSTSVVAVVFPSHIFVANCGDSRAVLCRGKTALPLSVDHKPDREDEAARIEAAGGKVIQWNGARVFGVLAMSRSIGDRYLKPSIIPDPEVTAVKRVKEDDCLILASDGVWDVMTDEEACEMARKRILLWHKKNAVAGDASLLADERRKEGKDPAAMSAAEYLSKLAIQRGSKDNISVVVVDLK
Change | relative binding score
S140M | -11.4%
S117W | -11.3%
P36C | 13.2%
D75S | 39.2%
N177D | 15.6%
S42E | 48.4%
R45M | -1.9%
C72H | 4.78%
D65N | 45.7%
P36Q | 16.4%
E174Q | 16.1%
T17M | 12.3%
F5N | 1.42%
Q167R | 61.7%
K116F | -7.28%
V121W | -3.65%
S104V | 3.07%
L112P | 8.03%
D153F | -12.9%
G23M | 16.6%
L91G | 1.99%
L94G | -17.7%
R32Y | 29.8%
N114P | -17.3%
E130M | 32.2%

Some of these lines once more (block 5):
Change | relative binding score
F5N | 1.42%
P36C | 13.2%
N177D | 15.6%
D65N | 45.7%
V121W | -3.65%
